# Experimental data gathered from unrelated publications.
# Protocols differ between the studies behind these lines.
# Cell line: LNCaP
Compound,test,setting,measurement,result
O=C(O)C(Cc1c[nH]cn1)N1C(=O)c2ccc3c4ccc5c6c(ccc(c7ccc(c2c37)C1=O)c64)C(=O)N(C(Cc1c[nH]cn1)C(=O)O)C5=O (centres unmarked),"cell growth or viability, SRB",72 h,IC50,> 100 µM
C=C(NC(=O)c1csc(-c2cccnc2)n1)C(=O)NC(=C)C(=O)OC,cell growth or viability,,EC50,17.5 µM
CCOc1cncc(-c2ccc(NC(=O)C3(c4ccnc(NS(=O)(=O)C5CC5)n4)CCOCC3)nc2)n1,"cell growth or viability, ATP luminescence",72 h,IC50,2.81 µM
CC(CCC(=O)[O][Pt]([NH2])([NH2])([OH])([Cl])[Cl])C1CCC2C3CCC4CC(O)CCC4(C)C3CCC12C (centres unmarked),"cell growth or viability, MTT",72 h,IC50,9.3 µM
CC(C)c1ccc(N(C)c2ccc3c(c2)OCC[C@H]3CNc2cnccc2C(=O)O)cc1,"cell growth or viability, ATP luminescence",7 days,IC50,0.00465 µM
O=C(C[Se]C(=O)c1cc2ccccc2s1)Nc1cccc(C(F)(F)F)c1,"cell growth or viability, MTS",48 h,IC50,13.9 µM
CCCCCCC(=O)[O][Pt]([NH2])([NH2])([Cl])([Cl])[O]C(=O)CCC(C)C1CCC2C3CCC4CC(O)CCC4(C)C3CCC12C (centres unmarked),"cell growth or viability, MTT",72 h,IC50,1.2 µM
O=C(C[Se]C(=O)c1cccnc1Nc1cccc(C(F)(F)F)c1)Nc1cccc(C(F)(F)F)c1,caspase 3/7,"10 µM, 48 h",late apoptotic/dead cells,43%
CCc1cc(N2C(=S)N(c3ccc(C#N)c(C(F)(F)F)c3)C(=O)C2(C)C)ccc1OCCN1CCN(CC(=O)Nc2cccc(NC3CCC(=O)NC3=O)c2)[C@H](C)C1 (some centres unmarked),androgen-stimulated proliferation,168 h,GI50,0.004 µM
Nc1nnc(-c2ccccc2O)cc1N1CC2CCC(C1)N2c1ccnc(C#CCCN2CCCCCC2)c1,"cell growth or viability, ATP luminescence",7 days,IC50,0.013 µM
O=C(C[Se]C(=O)c1ccccc1Nc1cccc(C(F)(F)F)c1)Nc1cccc(C(F)(F)F)c1,"cell growth or viability, MTS",48 h,IC50,9.27 µM
CNS(=O)(=O)Nc1nccc(Cc2c(C)c3ccc(Oc4ncccc4F)cc3oc2=O)c1F,cell viability,7 days,IC50,> 1 µM
C=C(NC(=O)c1csc(-c2ccc(NC(=O)CCCCCBr)cc2)n1)C(=O)NC(=C)C(=O)OC,cell growth or viability,,EC50,11.4 µM
O=C1c2ccc3c4ccc5c6c(ccc(c7ccc(c2c37)C(=O)N1CCN1CCCCC1)c64)C(=O)N(CCN1CCCCC1)C5=O,"cell growth or viability, SRB",72 h,IC50,87.1 µM

# Excerpt of the above:
Compound,test,setting,measurement,result
Nc1nnc(-c2ccccc2O)cc1N1CC2CCC(C1)N2c1ccnc(C#CCCN2CCCCCC2)c1,"cell growth or viability, ATP luminescence",7 days,IC50,0.013 µM
O=C(C[Se]C(=O)c1ccccc1Nc1cccc(C(F)(F)F)c1)Nc1cccc(C(F)(F)F)c1,"cell growth or viability, MTS",48 h,IC50,9.27 µM
